Results pooled from the literature.
Numbered parts are unrelated; each lists some results of a single study.
UniProt Q9UIK4, sequence (whole entry, looked up): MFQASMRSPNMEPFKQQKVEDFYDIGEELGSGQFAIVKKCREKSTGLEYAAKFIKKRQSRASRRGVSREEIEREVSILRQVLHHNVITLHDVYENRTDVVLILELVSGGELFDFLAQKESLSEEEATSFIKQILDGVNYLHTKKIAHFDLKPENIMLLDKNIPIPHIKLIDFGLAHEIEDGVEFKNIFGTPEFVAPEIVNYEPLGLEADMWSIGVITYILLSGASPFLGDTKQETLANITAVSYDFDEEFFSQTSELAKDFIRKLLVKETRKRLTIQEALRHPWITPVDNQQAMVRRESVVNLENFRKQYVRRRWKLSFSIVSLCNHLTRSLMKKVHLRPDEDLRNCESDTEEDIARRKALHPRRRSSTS
UniProt P41240, sequence (whole entry, looked up): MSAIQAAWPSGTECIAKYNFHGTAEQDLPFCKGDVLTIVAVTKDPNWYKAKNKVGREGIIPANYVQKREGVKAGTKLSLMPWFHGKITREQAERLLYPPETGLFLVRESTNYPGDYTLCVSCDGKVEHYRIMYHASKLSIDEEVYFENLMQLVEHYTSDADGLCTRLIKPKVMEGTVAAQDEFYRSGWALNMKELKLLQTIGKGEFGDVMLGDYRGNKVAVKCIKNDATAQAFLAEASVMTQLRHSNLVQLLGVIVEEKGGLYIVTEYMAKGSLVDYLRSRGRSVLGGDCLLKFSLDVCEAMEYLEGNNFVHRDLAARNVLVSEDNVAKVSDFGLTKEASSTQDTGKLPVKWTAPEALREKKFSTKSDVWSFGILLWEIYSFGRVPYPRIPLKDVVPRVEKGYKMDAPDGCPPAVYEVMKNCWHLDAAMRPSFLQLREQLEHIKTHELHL
UniProt Q9Y2H9, sequence (whole entry, looked up): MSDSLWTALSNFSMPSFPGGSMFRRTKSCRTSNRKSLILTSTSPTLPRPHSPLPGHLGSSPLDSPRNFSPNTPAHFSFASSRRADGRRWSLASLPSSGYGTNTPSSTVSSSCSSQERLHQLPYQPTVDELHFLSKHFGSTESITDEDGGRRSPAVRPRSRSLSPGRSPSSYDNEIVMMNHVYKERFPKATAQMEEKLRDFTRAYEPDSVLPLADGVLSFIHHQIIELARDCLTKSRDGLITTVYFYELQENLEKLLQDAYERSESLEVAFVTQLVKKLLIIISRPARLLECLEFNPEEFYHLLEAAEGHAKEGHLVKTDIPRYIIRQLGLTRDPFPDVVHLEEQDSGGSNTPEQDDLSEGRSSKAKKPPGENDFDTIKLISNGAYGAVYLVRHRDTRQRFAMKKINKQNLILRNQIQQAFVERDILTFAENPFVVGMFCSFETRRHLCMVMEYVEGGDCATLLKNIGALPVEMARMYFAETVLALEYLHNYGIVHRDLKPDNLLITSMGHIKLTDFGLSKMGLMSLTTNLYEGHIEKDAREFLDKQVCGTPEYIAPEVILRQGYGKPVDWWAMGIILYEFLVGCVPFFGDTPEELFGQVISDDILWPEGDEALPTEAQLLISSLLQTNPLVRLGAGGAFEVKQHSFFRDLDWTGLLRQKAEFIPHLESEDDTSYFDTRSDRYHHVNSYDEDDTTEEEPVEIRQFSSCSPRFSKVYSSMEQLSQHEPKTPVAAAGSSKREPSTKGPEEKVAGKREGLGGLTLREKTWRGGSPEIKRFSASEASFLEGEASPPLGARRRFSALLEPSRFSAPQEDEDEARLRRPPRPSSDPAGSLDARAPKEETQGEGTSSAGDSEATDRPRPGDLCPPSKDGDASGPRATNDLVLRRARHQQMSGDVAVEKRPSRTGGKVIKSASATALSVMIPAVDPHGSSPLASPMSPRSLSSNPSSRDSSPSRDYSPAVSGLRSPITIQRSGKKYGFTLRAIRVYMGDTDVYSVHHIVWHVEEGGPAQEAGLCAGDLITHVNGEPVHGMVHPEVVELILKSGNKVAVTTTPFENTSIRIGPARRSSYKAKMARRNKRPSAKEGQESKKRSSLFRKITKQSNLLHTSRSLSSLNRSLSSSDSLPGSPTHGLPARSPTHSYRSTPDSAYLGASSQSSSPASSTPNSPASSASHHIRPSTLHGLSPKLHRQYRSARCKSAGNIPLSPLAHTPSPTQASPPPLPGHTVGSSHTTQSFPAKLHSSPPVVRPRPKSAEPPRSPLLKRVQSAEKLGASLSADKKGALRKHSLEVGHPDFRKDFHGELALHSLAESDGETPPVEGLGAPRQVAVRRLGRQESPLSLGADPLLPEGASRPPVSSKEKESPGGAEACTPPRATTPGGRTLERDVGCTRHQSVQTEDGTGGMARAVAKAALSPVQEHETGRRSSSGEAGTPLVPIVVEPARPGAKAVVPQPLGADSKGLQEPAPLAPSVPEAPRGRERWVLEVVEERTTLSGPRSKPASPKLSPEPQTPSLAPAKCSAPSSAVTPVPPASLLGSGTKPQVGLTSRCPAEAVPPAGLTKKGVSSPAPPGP
UniProt P11309, sequence (whole entry, looked up): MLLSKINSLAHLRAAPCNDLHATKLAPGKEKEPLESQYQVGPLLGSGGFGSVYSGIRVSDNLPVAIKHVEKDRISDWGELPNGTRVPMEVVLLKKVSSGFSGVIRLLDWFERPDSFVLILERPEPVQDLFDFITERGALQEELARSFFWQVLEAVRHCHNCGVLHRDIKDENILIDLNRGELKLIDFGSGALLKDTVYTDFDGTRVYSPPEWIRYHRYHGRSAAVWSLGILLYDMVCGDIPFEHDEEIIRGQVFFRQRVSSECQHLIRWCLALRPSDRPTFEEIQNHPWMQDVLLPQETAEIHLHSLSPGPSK

Block 1
Target: Muscle, skeletal receptor tyrosine-protein kinase (MUSK, Homo sapiens, UniProt O15146)
Observed: enzyme activity
Action: inhibitor
Tested at: 0.5 µM
Reference: control
Measurement: remaining activity
Residues (O15146 1-869): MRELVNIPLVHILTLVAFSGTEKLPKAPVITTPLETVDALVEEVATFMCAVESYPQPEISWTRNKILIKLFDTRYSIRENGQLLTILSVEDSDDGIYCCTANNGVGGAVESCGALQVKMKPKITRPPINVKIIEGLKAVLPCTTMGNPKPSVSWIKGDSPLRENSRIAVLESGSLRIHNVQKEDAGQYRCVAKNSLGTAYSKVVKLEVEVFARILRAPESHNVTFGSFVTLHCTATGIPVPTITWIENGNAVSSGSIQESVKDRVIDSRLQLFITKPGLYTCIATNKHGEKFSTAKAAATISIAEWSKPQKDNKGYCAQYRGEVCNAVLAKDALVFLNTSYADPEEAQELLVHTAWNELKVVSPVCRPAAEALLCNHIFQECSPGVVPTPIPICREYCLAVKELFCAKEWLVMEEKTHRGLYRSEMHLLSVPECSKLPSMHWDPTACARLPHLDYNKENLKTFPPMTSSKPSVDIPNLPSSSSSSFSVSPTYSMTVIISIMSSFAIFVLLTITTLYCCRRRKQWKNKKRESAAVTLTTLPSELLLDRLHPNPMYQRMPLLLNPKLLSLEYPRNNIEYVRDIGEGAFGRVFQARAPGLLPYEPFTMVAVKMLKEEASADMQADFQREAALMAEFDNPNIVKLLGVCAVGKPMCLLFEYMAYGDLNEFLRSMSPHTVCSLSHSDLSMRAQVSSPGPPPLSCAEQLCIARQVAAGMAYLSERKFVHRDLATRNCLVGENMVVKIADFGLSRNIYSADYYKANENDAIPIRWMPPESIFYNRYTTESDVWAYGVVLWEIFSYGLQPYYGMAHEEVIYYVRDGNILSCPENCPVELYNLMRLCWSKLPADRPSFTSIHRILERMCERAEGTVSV
Nc1cccc(-c2cc3c(Oc4cccc(O)c4)ncnc3[nH]2)c1: 62.8%
O=c1cc(-c2cccc3c2Sc2ccccc2S3)oc(N2CCOCC2)c1: 89.1%
COc1cc2ncnc(Nc3ccc(O)c(Br)c3)c2cc1OC: 78.2%
CCOc1nc(NC(=O)Cc2cc(OC)ccc2OC)cc(N)c1C#N: 104%
COc1cc2c(cc1OC)-c1[nH]nc(Nc3cccc(F)c3)c1C2: 82.7%

Block 2
Target: RNA binding protein fox-1 homolog 2, RRM domain, GST-SBP tag (RBFOX2, Homo sapiens, UniProt O43251-10, residues 100-194)
Method: RNA Bind-n-Seq
Form: RNA
Matrix: in vitro
Tested at: 365 nM
Setting: natural RNA segment, single round, ends assumed
Reference: no-protein control
Reading: higher = stronger binding
Measurement: RBNS enrichment (R)
Residues (chain): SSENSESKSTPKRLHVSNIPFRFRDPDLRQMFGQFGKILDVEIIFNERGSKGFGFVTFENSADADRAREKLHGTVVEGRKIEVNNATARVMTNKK
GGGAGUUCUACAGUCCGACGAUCUAAAAUGGAUGUUUAGUAAAGGAACUGGUUCUCAGUUAUGUUUACAGCACUUGGAAUUGUGUGUUCUUGUACAUUUUGUAUUUUAAAACCUUUUAUGGGAGUGCAGUGCUUGGAAUUCUCGGGUGCCAA: 1.49
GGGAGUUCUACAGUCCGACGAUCUUUUUGAAAGCUUCCUAGCUGGAGGUAUGAUCAGAAAACCAAUUUACUGAAAAACUGCACAAGAAGGUACCGUGAAUGUAAUUUCCUAGCAGGCCACUCUGCAUCUGUUAUGGAAUUCUCGGGUGCCAA: 0.321
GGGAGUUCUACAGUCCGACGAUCGAUGUCUCCUCAAGCCUGUGGGCAGCAUGCCCAGAUUCCCAGACUAAGACACUGUGACAGUUGUCUGUCGGUCCACUGUGUUUAGUUGCAAAGAUUUCACCAUGUGUGUUUGGAAUUCUCGGGUGCCAA: 1.9
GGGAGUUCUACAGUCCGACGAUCACCGCUGUCCUGGCAUUUGUGGCCACUCACUUUGUAGGAAACUCAUCUCCUUCCUGAGGAGCCGGGAGGCUGGACCAGUCCCGUCGUGCAGUCAGGUGGGCGGUGUGUCUUGGAAUUCUCGGGUGCCAA: 0.571
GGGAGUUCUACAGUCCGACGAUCGGUGCUGCCAGCUGCUCCCAAUGUGCCGAUGUCCGUGGGCAGAAUGACUUUUAUUGAGCUCUUGUUCCGUGCCAGGCAUUCAAUCCUCAGGUCUCCACCAAGGAGGCAGGUGGAAUUCUCGGGUGCCAA: 0.241
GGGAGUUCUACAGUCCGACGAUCCCAAAGAAGGCAAAAAGAUAAGAUUUACUCAAGUAGCAUUUGGGCAAUGAGGAAGGAAAGGUUUCAAAUUUAGGGGCAGAAGUGAGAGAAUGAGCCAACCCAUGUACCUGUGGAAUUCUCGGGUGCCAA: 1.14
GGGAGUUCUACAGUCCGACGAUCAAGCAAGAGACUAAUAGGUUUUGGAACAGAGACUCUUCUGCCUCCACAGGGCAUGGAACCCUGAACCAGAAUGUCCCUGCAGUGCCGGAGAGGUCGCCGUGGGAAAACAGUGGAAUUCUCGGGUGCCAA: 0.243
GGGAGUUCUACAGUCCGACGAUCGCCAAAAAAUAAUAAUGAUUUAAUUUAUGACCUUAUGUUGAGACUAAUUUCACAUCUUAUUUUGCAGUCAUUUACAGUGAAACAAUGUUCCAGCUAGCUUUAAAAGCUAUUGGAAUUCUCGGGUGCCAA: 0.895

Block 3
SMILES: O=C(O)[C@H]1[C@H](Cn2nnc3ccccc3c2=O)CC[C@@H]1C(=O)c1ccc(OCCC2CCOCC2)cc1
Observed: cell-free assay
Method: competition with immobilised ligand
Tested at: 1 µM
Measurement: remaining binding
DAPK2 (Homo sapiens, UniProt Q9UIK4): 100%
PRKACA (Homo sapiens, UniProt P17612): 97%
PRKACB (Homo sapiens, UniProt P22694): 95%
MAST1 (Homo sapiens, UniProt Q9Y2H9): 98%
CSK (Homo sapiens, UniProt P41240): 100%
PIM1 (Homo sapiens, UniProt P11309): 95%

Single results of other studies
CCC[C@H]1NC(=O)CSC[C@@H](C(=O)OCC)N(C)C(=O)[C@H](CC(C)C)NC(=O)[C@H](C)N(C)C(=O)[C@@H](CC(C)C)NC(=O)[C@H](C)N(C)C(=O)[C@H]2CCCN2C(=O)[C@@H](CC(C)C)NC(=O)CN(C)C1=O — logD (hydrocarbon/water): 0.499

Repeated from above (block 1):
Nc1cccc(-c2cc3c(Oc4cccc(O)c4)ncnc3[nH]2)c1: 62.8%
O=c1cc(-c2cccc3c2Sc2ccccc2S3)oc(N2CCOCC2)c1: 89.1%
COc1cc2ncnc(Nc3ccc(O)c(Br)c3)c2cc1OC: 78.2%
